Measured values gathered from unrelated publications.
Compare with care: the assays were run in different laboratories. Numbers after ± are the reported error.

`CC1(C)OC(=O)C[C@H](O)[C@]2(C)[C@H]3CC[C@@]4(C)[C@H](c5ccoc5)OC(=O)[C@H]5O[C@]54[C@]3(C)C(=O)C[C@@H]12` has a combination index of 0.82 (COLO 320 (ABCB1-overexpressing, multidrug-resistant); cell growth; 200 µM starting, CI at ED50, added: doxorubicin, ratio 742.5:1).
`COc1cc(C(=O)N2CC[C@@H](O)[C@@H](N)C2)cc2nc(-c3cc4cccnc4n3CC3CC3)n(C)c12` has an inhibition of 39% (human neutrophils; protein citrullination; concentration not given, added: ionomycin 5 µM).
`COc1cc(CNC(=O)C[C@H](C)CCC=C(C)C)ccc1OCc1cn(-c2ccccc2F)nn1` has a growth of 76.7% (LOX IMVI; SRB; 10 µM, 48 h).
`Cc1ccc(C(C)C)cc1.N=C(N)Nc1nc2ccccc2s1.[Cl-].[Cl][Ru+]` gave a selectivity ratio of 1.4 (BPH-1 and PC-3; MTT; 24 h; relative to: IC50 BPH-1 over PC-3).
For `CC(=O)OC[C@H]1O[C@@H](Sc2sc(C(=O)c3ccc(Br)cc3)c(N)c2-c2nc3ccccc3s2)[C@H](OC(C)=O)[C@@H](OC(C)=O)[C@@H]1OC(C)=O`, the growth was 116% (RXF 393; SRB; 10 µM, 48 h; relative to: untreated).
With `COc1cc(CNC(=O)C[C@H](C)CCC=C(C)C)ccc1OCc1cn(-c2ccc(F)cc2)nn1` the growth was 81.4% (LOX IMVI; SRB; 10 µM, 48 h).
Under “IL-6 expressing cells”, `COc1ccc(NC(=O)COc2ccc(/C=C/C(C)=N/O)cc2OC)cc1` is recorded as 36.6% (SH-SY5Y; flow cytometry; 5 µM, added: amyloid beta 10 µM).
For `CC[C@H](C)[C@@H]1NC(=O)[C@H]([C@@H](C)O)NC(=O)[C@H](Cc2ccc(O)cc2)NC(=O)[C@H](CCCNC(=N)N)NC(=O)[C@@H]2CCCN2C(=O)[C@H]2CCCN2C(=O)[C@H]([C@@H](C)O)NC(=O)[C@H](C(C)C)NC(=O)[C@H](C(C)C)NC(=O)[C@H](CCCCN)NC(=O)[C@H]([C@@H](C)O)NC(=O)[C@H](CCC(N)=O)NC(=O)[C@H](CO)NC(=O)[C@H](Cc2ccc(O)cc2)NC(=O)[C@H](CO)NC(=O)[C@H](Cc2ccc(O)cc2)NC(=O)[C@@H]2CCCN2C(=O)[C@H](CO)NC(=O)[C@H](CO)NC(=O)[C@H](CC(C)C)NC(=O)[C@H](CCCCN)NC(=O)[C@H](C)NC1=O`, “total cell-associated amyloid beta” read ~47% (human iPSC-derived neurons; 0.25 µM, 24 h, added: amyloid beta 5 µM, oligomer-forming; relative to: amyloid beta alone).
`Cc1cc(Nc2ccc(NC(=O)c3ccc(NC(=O)c4ccncc4)cc3)cc2)nc(N)n1` gave a reporter reactivation of 1 ± 0.1 fold (KG-1 with methylated CMV-luciferase; luciferase reporter gene; 10 µM, 24 h; relative to: untreated).
`C=C(C)[C@@H]1CC[C@]2(C(=O)OCO/N=[N+](\[O-])N3CCCC3)CC[C@]3(C)[C@H](CC[C@@H]4[C@@]5(C)CC[C@H](OC(C)=O)C(C)(C)[C@@H]5CC[C@]43C)[C@@H]12`: “cells in G1 phase” 43.2% (B16-F10; PI flow cytometry; 0.25 µM).
The growth percent of `COc1cc(CNC(=O)C[C@H](C)CCC=C(C)C)ccc1OCc1cn(-c2ccccc2Cl)nn1` is reported as 90.1% (DU-145; SRB; 10 µM, 48 h).
With `C/C=C(/NC(=O)CCCCCCC)C(=O)N/C(=C/C)C(=O)N[C@H](CC(C)C)C(=O)N[C@@H](CC(C)C)C(=O)Nc1ccc(C(=O)N[C@H](C(=O)O)[C@@H](C)O)cc1` the inhibition was 66.4% (RAW264.7; NO release, inhibitor, Griess; 20 µM, 24 h, LPS-stimulated).
`COc1cc(CNC(=O)C[C@H](C)CCC=C(C)C)ccc1OCc1cn(-c2ccc([N+](=O)[O-])cc2)nn1` gave a growth percent of 46.1% (T47D breast cancer cells; SRB; 10 µM, 48 h).
`CC[C@H](C(=O)N1CCCC[C@@H]1C(=O)O[C@H](CCc1ccc(OC)c(OC)c1)c1cccc(OCC(=O)NCCOCCOCCN(C)C/C=C/C(=O)Nc2cc3c(Nc4ccc(F)c(Cl)c4)ncnc3cc2OC)c1)c1cc(OC)c(OC)c(OC)c1` — result for “decrease in viability”: 57.6% (NCI-H1975 expressing FKBP12F36V-PTPN2; CellTiter-Glo; concentration not given, 6 days).
`CN1CCN(c2ccc3nc(-c4cccc(N5CCc6cc(Cl)ccc6C5)c4)[nH]c3c2)CC1` gave an EC50 of 0.51 µM (HT-22; protection from ferroptosis, CCK-8 viability; 24 h, added: 1 µM erastin).
`CO[C@H]1N(OC)c2ccccc2[C@@]12CN=C(Nc1cc(C(F)(F)F)cc(C(F)(F)F)c1)S2` (relative stereo) has a sub-G1 cells of 15.1 fold (HCT-116; PI flow cytometry; concentration not given, 24 h; relative to: untreated).
For `COc1ccc(/C=N\NC(=O)[C@]2(C)C3CC[C@]4(C)C(C(=O)C=C5C6[C@@H](C)[C@H](C)CC[C@]6(C)CC[C@]54C)[C@@]3(C)CC[C@H]2OC(C)=O)cc1OC` (some centres unmarked), the inhibition was 68.6% (RAW264.7; NO release, inhibitor, Griess; 10 µM, 24 h, LPS-stimulated).
`O=Cc1c(O)ccc2ccccc12` — result for “log2 fold change”: -2.94 (HUVEC; RNA sequencing, measured: MYBL2; 75 µM, 24 h; relative to: DMSO).
Under “primary cilium length”, `CC(CCC(=O)NCc1ccc(C(=O)NO)cc1)C1CCC2C3C(O)CC4CC(O)CCC4(C)C3CCC12C` (centres unmarked) is recorded as “no effect” (normal cholangiocytes (human); 2 µM).
The combination index of `CC(C)C(=O)Cc1c(OCC(O)C(C)(C)O)ccc2ccc(=O)oc12` (centres unmarked) is reported as 0.86 (COLO 320 (ABCB1-overexpressing, multidrug-resistant); cell growth; 200 µM starting, CI at ED50, added: doxorubicin, ratio 23.2:1).
The growth percent of `COc1cc(CNC(=O)C[C@H](C)CCC=C(C)C)ccc1OCc1cn(-c2ccc(Cl)cc2Cl)nn1` is reported as 48.4% (Hs-578T breast cancer cells; SRB; 10 µM, 48 h).
For `CC(C)Cc1ccc(C(C)C(=O)NN=Cc2ccc(OCC(=O)NN=Cc3cccc([N+](=O)[O-])c3)cc2)cc1` (centres unmarked), the viability was 70.4% (U87 MG; MTT; 80 µM, 48 h).
With `Cc1ccc(Nc2ncc3c(n2)N(C)C(=O)N(c2cc(NC(=O)c4cc(N5CCC(O)CC5)cc(C(F)(F)F)c4)ccc2C)C3)cn1` the GI50 was 0.201 µM (Hep3B; cell growth or viability, ATP luminescence; 72 h).
With `N[C@@H](CSC(F)(F)[18F])C(=O)O` the protein incorporation was 0.6% (C6; concentration not given, 30 min).
`Cc1nc(C)c(C=[N+]([O-])C(C)(C)C)nc1C` — result for “ATP content increase”: 27.5% (rat primary cerebellar granule neurons; 30 µM, added: MPP+).
`COc1cc(CNC(=O)C[C@H](C)CCC=C(C)C)ccc1OCc1cn(-c2ccccc2)nn1` gave a growth percent of 100% (Hs-578T breast cancer cells; SRB; 10 µM, 48 h).
For `CC(C)Cc1ccc(C(C)C(=O)N/N=C/c2ccc(OCC(=O)N/N=C/c3ccc([N+](=O)[O-])cc3)cc2)cc1` (centres unmarked), the viability was 90% (U87 MG; MTT; 10 µM, 48 h).
`COc1cc2c(OC3OCC(OC)C(OC)C3OC(=O)c3ccc(Br)cc3)c3c(c(-c4ccc5c(c4)OCO5)c2cc1OC)C(=O)OC3` (centres unmarked): protein level “decreased” (CAL-27; western blot, measured: N-cadherin; concentration not given, 36 h; relative to: DMSO).
`O=C(CCc1ccc(O)cc1)c1c(O)cc(O)cc1OC1OC(CO)C(O)C(O)C1O` (centres unmarked) — result for NF-κB inhibition: “inactive” (human cells; luciferase reporter; concentration not given, added: TNF-α).
For `COc1cccc(/C=N/NC(=O)COc2ccc(/C=N/NC(=O)C(C)c3ccc(CC(C)C)cc3)cc2)c1O` (centres unmarked), the viability was 52% (U87 MG; MTT; 40 µM, 48 h).
`COc1cc(CNC(=O)C[C@H](C)CCC=C(C)C)ccc1OCc1cn(-c2ccccc2[N+](=O)[O-])nn1` has a growth percent of 80.8% (ACHN; SRB; 10 µM, 48 h).
With `O=C1Nc2ccc(F)cc2C1=Cc1c(Cl)[nH]c2c1ccc1ccccc12` the TGI was 6.92 µM (colon cancer subpanel of NCI-60; 48 h).
With `COc1cc(/C=C/C(=O)/C=C/c2ccc(O)c(OC)c2)ccc1O` the S-phase cells was 1.4 fold (CEM-T; propidium iodide flow cytometry; 1 µM, 24 h; relative to: untreated).
The growth percent of `COc1cc(CNC(=O)C[C@H](C)CCC=C(C)C)ccc1OCc1cn(-c2cccc(C(F)(F)F)c2)nn1` is reported as 74.9% (MDA-MB-435 melanoma cells; SRB; 10 µM, 48 h).
Under mRNA level, `Brc1ccc([C@H]2CN3CCSC3=N2)cc1` is recorded as “decreased” (HEK293T expressing wild-type HIF-2α; measured: HIF-2 target genes; 10 µM, 24 h).
The therapeutic index of `COc1cc(CN2CCN(c3ccc(OC(F)(F)F)cc3)CC2)c2cc3[n+](cc2c1O)CCc1cc2c(cc1-3)OCO2` is reported as 28.2 (HeLa and MDCK; SRB; 48 h; relative to: CC50 MDCK over IC50 HeLa).
The H3K9 acetylation of `CCOC(=O)CCCCC[C@@H]1NC(=O)[C@H]2CCCN2C(=O)[C@H](Cc2ccccc2)NC(=O)[C@H](Cc2ccccc2)NC1=O` is reported as ~2.1 fold increase (iPSC-derived neural progenitor cells; western blot; 1 µM, 18 h; relative to: vehicle).
With `O=C(/C=C(O)/C=C/c1cccs1)/C=C/c1cccs1` the intracellular ROS was 138 ± 14.2% (Caco-2; DCFH-DA, SRB-normalized; 10 µM; relative to: untreated cells).

For quick reference, copied from above:
`COc1cc(CNC(=O)C[C@H](C)CCC=C(C)C)ccc1OCc1cn(-c2ccc([N+](=O)[O-])cc2)nn1` gave a growth percent of 46.1% (T47D breast cancer cells; SRB; 10 µM, 48 h).
`CC[C@H](C(=O)N1CCCC[C@@H]1C(=O)O[C@H](CCc1ccc(OC)c(OC)c1)c1cccc(OCC(=O)NCCOCCOCCN(C)C/C=C/C(=O)Nc2cc3c(Nc4ccc(F)c(Cl)c4)ncnc3cc2OC)c1)c1cc(OC)c(OC)c(OC)c1` — result for “decrease in viability”: 57.6% (NCI-H1975 expressing FKBP12F36V-PTPN2; CellTiter-Glo; concentration not given, 6 days).
`CN1CCN(c2ccc3nc(-c4cccc(N5CCc6cc(Cl)ccc6C5)c4)[nH]c3c2)CC1` gave an EC50 of 0.51 µM (HT-22; protection from ferroptosis, CCK-8 viability; 24 h, added: 1 µM erastin).
`CO[C@H]1N(OC)c2ccccc2[C@@]12CN=C(Nc1cc(C(F)(F)F)cc(C(F)(F)F)c1)S2` (relative stereo) has a sub-G1 cells of 15.1 fold (HCT-116; PI flow cytometry; concentration not given, 24 h; relative to: untreated).
